# Measured values gathered from unrelated publications.
# Every numbered part comes from another study and shows a few of its results, in no order. Changes are numbered by the printed parent chain.

# Set 1 — technique: protein binding microarray; form: double-stranded DNA, one strand shown; sample: in vitro; concentration: not given; baseline: not given; reading: higher = stronger binding
# Target: Histone acetyltransferase KAT6A, both winged helices, GST fusion (KAT6A, Homo sapiens, UniProt Q92794, residues 1-181)
# Notes: 8-mer, flanks averaged, mean of 2 arrays, mostly near background
# Residues (chain): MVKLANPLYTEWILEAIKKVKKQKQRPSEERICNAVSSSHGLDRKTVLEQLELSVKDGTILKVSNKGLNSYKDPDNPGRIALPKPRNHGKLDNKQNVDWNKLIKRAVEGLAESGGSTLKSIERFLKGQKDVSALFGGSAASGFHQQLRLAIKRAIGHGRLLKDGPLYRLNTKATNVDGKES
Strand,E-score
CCGGTAGG,0.15
CAGAAGTC,-0.141
CCCGGTGC,0.168
ATAATAAT,-0.118
ACTTGGAC,0.0192
ACAAGCCG,0.193
CATTGGAC,-0.00838
AAAATCGT,-0.051
ATTTAAGC,-0.0105
CTTAAGAA,-0.0525
AGCCCGGG,0.203
AACGGATA,0.279
GTGTCTAA,-0.0794
GAATGGCA,0.0317
CATGCTTC,0.00747
CCGAGCCG,0.312
AGAGGCAA,-0.141
CCTGATCA,-0.211
AAGGCTGA,-0.144

# Set 2 — technique: DHFR PCA, deep sequencing; sample: yeast; together with: (+)-ABA 0.39 µM; baseline: wild-type fitted maximum; reading: higher = stronger binding
# Target: ABI1, truncated, D143A, DHFR fusion (Arabidopsis thaliana)
# Notes: methotrexate growth selection, single substitutions
# Starting sequence: PYL1, truncated, DHFR fusion (Arabidopsis thaliana); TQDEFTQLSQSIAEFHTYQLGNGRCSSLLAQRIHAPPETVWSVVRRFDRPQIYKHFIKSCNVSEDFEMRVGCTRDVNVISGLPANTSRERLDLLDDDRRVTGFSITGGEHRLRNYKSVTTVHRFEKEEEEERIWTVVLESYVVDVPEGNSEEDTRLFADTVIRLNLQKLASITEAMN; partner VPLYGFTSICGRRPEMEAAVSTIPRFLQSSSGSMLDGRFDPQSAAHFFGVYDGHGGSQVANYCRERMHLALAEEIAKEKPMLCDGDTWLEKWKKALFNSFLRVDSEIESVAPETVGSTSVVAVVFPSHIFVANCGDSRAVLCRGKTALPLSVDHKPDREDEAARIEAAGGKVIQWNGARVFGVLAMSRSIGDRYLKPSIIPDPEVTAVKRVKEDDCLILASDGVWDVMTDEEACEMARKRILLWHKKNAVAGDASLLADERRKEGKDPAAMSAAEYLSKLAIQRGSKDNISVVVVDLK
Variant,relative binding score
L94P,-2.13%
F56Y,9.72%
H55Q,82.5%
F47Y,-3.29%
L156T,53%
A35W,-11.7%
Q7N,35%
L94F,48.9%
R90V,21.3%
V142T,17.2%
K58N,-3.51%
E130V,36%
R99Q,29.6%
T101H,-5.61%
E147V,16.8%
D92A,-7.58%
E174R,-4.4%
S117K,-0.498%
R163P,6.74%

# Set 3 — technique: RNA Bind-n-Seq; form: RNA; sample: in vitro; concentration: 365 nM; baseline: no-protein control; reading: higher = stronger binding
# Target: RNA binding protein fox-1 homolog 2, RRM domain, GST-SBP tag (RBFOX2, Homo sapiens, UniProt O43251-10, residues 100-194)
# Notes: natural RNA segment, single round, ends assumed
# All sequences stand within: GGGAGUUCUACAGUCCGACGAUC … UGGAAUUCUCGGGUGCCAA
# Residues (chain): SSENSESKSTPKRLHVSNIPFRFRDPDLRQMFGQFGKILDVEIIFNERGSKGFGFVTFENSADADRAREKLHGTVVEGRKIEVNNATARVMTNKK
Strand,RBNS enrichment (R)
CAGACUAUGUACAUAAUCUGUAUAUGGGAAAAGAAAGAGCGAAAUUACCUUACUUAAGGAUAAUAGGACAAGACAAAUUACAGAUUGUCUCAGAGAAAACAAAUGAGUUA,0.347
UUGUAUAUUUGUAUUUUAUGACCAAGUAGACCAAGUCAGAAAGAUCUCUCUCGAGCGUACCAUAAACCUGCAGAGAGAAGUCUCGAAAGGCUCCACCAGGUACCAAGGGC,0.238
UUUUACGCUAGAAGCUAGGCGGAAGUGAGUGGGCGGGGAUAUGCAAAUAACUAUCUCACAUAGCGCUUCUAAUUUGCCGCGUGUGAGGGGAGCAUUCUGGGAUGGUUUUG,1.06
UCACUCCUUUCUAGGUCUUAGUUUUCCCAUGUACACAGGGUCCUCUAGUUGUGAAAAUCACUCAAGAUUGAGAGAACAGGCUGGCAUAGUGGGAUAAAGGGCCCAAAAGC,0.233
AUCAGAGAAUUUGUUCACCACCGUCUCCAGGCAGCAACGCCAAGGGCAAGUCUGAUCUCAGCACCCACGAGCCACAUCCUGGGCCAAGCAACAGUAACCCUUGCCAAGCA,0.542
AGCGCGCGGCUCUACACGCUUGGGUAGCGGGAUAAGUCACUGUUUUCUUUAUUUCUUUAAAAAAAAAAAAGUUCUGUUGCAAACGACUGCUGUUGGAUUCUGAGGGUGGG,0.987
CAGUGACCCACAUUGAUGAGUGGUCUGAGCAGCUGGUGGGUUACUUUACCCAGUGUGUUCCUGCAUUGUUUAGUGUGGAACUGUGGGCAGGUGCCGAGUGUCAGAUAGCA,6
UAGUUUCUUAAUUAUCUAACUCACACGAGGGUAAGUUUUUUGUUGGUUUCUUUUUUGGAGUCCUGAGUUCAAAGGGGACAGAACUAAGGGCAGGAGAAGAGAAUGGAUGU,1.88
UAGGUGCCAAUUUGGGUGGGGGAGGAAGGAACAAUUACAAGAUCCCCAUCUGUCUGCCCAUGCCACCUAAACAAGUCAGGACUCCAAUUGGAUUUUGAAGUUAUUUUAAU,0.387
UAAUAAAUGGUUUUGAUUGUUCAAACUAAUUUCUAGCUACCUGAAUAAUUCACAGAUUAUAGCUUAUUUUUAAUUAAUUUAUUUAUUUUGAAACAGUUUCACUGUGUCUG,0.426
UAACUUGCUCUAUAUCUGUACAGAUUAUAAUCAAUAAGUGCACUAUUAUUAAAUGUUUAAAGUAAGGGAAAAGUCUGGGCUGCCUUCCUUAAUAUUGCAUCUCACUCCCA,2.47
AGUAGCACAGAUGUCUGCUCCUCCUCUUGAACUUGGGUGGGAAACCCCACCCAAAAGCCCCCUUUGUUACUUAGGCAAUUCCCCUUCCCUGACUCCCGAGGGCUAGGGCU,0.354

# Set 4 — target: CCNB1, cyclin fold, Cln2 fusion (human); technique: yeast growth competition, sequencing; sample: yeast; notes: weak parent motif; baseline: not given; reading: higher = stronger binding
# Starting sequence: CDKN1B docking peptide (human); PSACRNLFGPVDH
Variant,normalised enrichment score
L7M,0.512
A3P,0.175
F8C,-0.117
S2R,0.664
R5F,0.37
L7H,0.751
H13V,-0.22
F8V,-0.365
D12L,0.491
V11T,0.263
L7W,-0.00275
P1D,-0.175
F8S,0.501
A3M,0.992
P1R,0.817
F8L,-0.00382
V11K,0.554
C4G,-0.0534
G9R,-0.303
P1N,0.671
N6Y,0.114
A3V,1.94
P10Q,0.986
C4H,0.0878
G9I,0.454

# Set 5 — technique: aptamer microarray, sandwich; form: DNA with 2'F-ANA; sample: in vitro; concentration: 200 nM; together with: Cy3 exosite-II aptamer, 400 nM; reading: higher = stronger binding; strand: GGTTGGTGTGGTTGG
# Target: Prothrombin, mature alpha-thrombin (F2, Homo sapiens, UniProt P00734)
# Notes: whole 15-mer aptamer, many near background
Modification,mean fluorescence intensity
2'F-ANA at 1 3 4 5 6 8 9 10,66.8 a.u.
2'F-ANA at 1 2 4 6 7 9 10 11 12 14 15,49.2 a.u.
2'F-ANA at 1 2 4 6 8 9 12 13 14 15,55.2 a.u.
2'F-ANA at 1 2 5 8 9 10 12 13,50.1 a.u.
2'F-ANA at 2 7 8 10 11 13 14,86.9 a.u.
2'F-ANA at 1 2 4 5 7 10 11 13,45.4 a.u.
2'F-ANA at 2 4 5 6 7 9 10 12 13 15,51.7 a.u.
2'F-ANA at 1 2 4 5 6 8 9 11 12 14 15,57.8 a.u.
2'F-ANA at 2 6 9 10 11,111 a.u.
2'F-ANA at 1 2 4 5 9 12 14,43.8 a.u.
2'F-ANA at 2 3 9 10 11 12 15,387 a.u.
2'F-ANA at 1 2 5 6 10 11 13 14,51 a.u.
2'F-ANA at 1 2 9 10 11 13 14 15,50 a.u.
2'F-ANA at 1 2 4 6 8 9 12 14 15,73.3 a.u.
2'F-ANA at 3 4 5 6 7 9 12 14,52.2 a.u.
2'F-ANA at 1 2 4 5 7 8 12 13 15,101 a.u.
2'F-ANA at 1 2 3 4 6 7 8 9 11 14 15,63.6 a.u.
